Experimental data collected from several papers.
A part holds a random share of what one study measured. Positions count from the first letter of the parent shown.

Block 1
Target: RING finger protein unkempt homolog, zinc fingers 1-6, GST-SBP tag (UNK, Homo sapiens, UniProt Q9C0B0, residues 30-357)
Chain of UniProt Q9C0B0 (30-357, looked up): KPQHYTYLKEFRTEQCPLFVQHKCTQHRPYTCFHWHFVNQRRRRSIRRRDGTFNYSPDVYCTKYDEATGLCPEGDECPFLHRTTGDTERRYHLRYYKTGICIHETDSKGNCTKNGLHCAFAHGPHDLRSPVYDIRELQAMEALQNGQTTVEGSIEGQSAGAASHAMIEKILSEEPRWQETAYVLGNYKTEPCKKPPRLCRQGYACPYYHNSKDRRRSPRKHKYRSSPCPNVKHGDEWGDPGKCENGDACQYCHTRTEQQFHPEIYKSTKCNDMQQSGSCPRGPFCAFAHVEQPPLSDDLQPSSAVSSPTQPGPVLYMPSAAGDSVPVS
Method: RNA Bind-n-Seq
Molecule type: RNA
Matrix: in vitro
Concentration: not given
Notes: RNA with constant flanks, human and mouse sites, ends assumed
Relative to: input RNA pool
Direction: higher = stronger binding
All sequences stand within: GGGAGUUCUACAGUCCGACGAUC … CAACAGAGGAUUGAGCAUCA
| Oligonucleotide | bound/input enrichment [ratio] |
| --- | --- |
| CCUCACCAAAAGGUUUCGGGAACUGGAGGAAGUAUUAAUGUACAACUCACCACUUCAUGCCAUAGGAGGCUGAAGUUGACGUUGCCUUUUAAGCCUUUUACAUACACUGGUCAGUUCGGA | 0.278 |
| GAAGAAAUUUUUACUUCACUUGCAAGAUUACCAACUAGCAAGAGAAGUUUAAGGAAUUUCAGGUUAAAUAGUAGUGAUGUGGAUGGAGAACCUAUGUAUAUUCAGAUGGUUACAGCUCUA | 0.239 |
| AAAAAUUUGCAAGAAGAAAUUGACGCCUUAGAAUCCAGAGUGGAAUCAAUUCAGCGAGUGUUAGCAGAUUUGAAAGUUCAGUUGUAUGCAAAAUUCGGGAGCAACAUAAACCUUGAAGCU | 0.505 |
| GAAAAAGUUUUGUCUCCUUUACGCAGCCCGCCCCUCAUUGGAUCCGAGUCUGCUUAUGAAAGUUUUCUAAGUGCUGAUGACAAGGCUUCUGGCAGAGGUGCCGAAAGUCCUUUUGAAGAA | 0.128 |
| AGGAAAUGUUGUAAUCAUCCAUAUCUUAUAAAAGGUGCUGAGGAGAAAAUACUUGGAGAAUUUAGAGAUACUUACAAUCCAGCUGCUUCUGAUUUUCAUCUUCAAGCAAUGAUCCAGUCU | 0.344 |
| AUGAAGGAGGCAUUUGGCUUUAUUGAAAGAGGUGAUGUUGUAAAAGAGAUAUUCUUUCACUAUAGUGAAUUUAAGGGUGACUUAGAAACCUUACAGCCUGGCGAUGAUGUGGAAUUCACA | 0.31 |
| AUUUGAUACUAAUCUGUCUGUUUGUUUGUGGAUUUUGAGAAAUAUUUGCUUAACUACCCAAAUAGGAUUUCUGGUAUUAAAUGGCCUUUGGGUCCUAAAAGCUUUUUUUAACUUCUUGCU | 1.82 |
| CAUCUCAGGUCAUCUUCUGUGGAAGAUGUUAAACUAAUUACUAAUGAGGUAAGACCUGCUGUAGAAAUUAGAAGAUGCAGUAUGCCCUCAGUUAUCUGUGAGCCCAUAAAACAUUUCCAA | 0.503 |
| GACAAUGGACCAUCUUCCUAGAACUCCCAACUAAAUACUUCAGGACACAUCUUCUGGAAUGUAUUUUACUUUUGAGGUGGAGGGAGAAAUUGUCUUAUUGAUUCCUAAAUUCUUUGCAGG | 0.185 |
| UCGGGUGAGGCCUGGCCUGCUGUUCUAAGUAGUCCACUGGCAUUGCCUUCCAAGCCACUUUAGGUCCUUUUGUUUUGUUUUGUUUUUGUUUUUAAAUCAGUGCUCUUACUUCCUGUACAU | 5.77 |
| AUAGCCCACUUUAAGCAGUAUGUUCCUAUCAUUGAAAAAGAAGCAAAGGAAUACUUUCAAAGUUGGGGAGAAAGCGGAGAAAGAAAUGUGUUUGAAGCACUGUCUGAGCUCAUAAUUUUG | 0.21 |

Block 2
Target: Histone acetyltransferase KAT6A, winged helix 2, GST fusion (KAT6A, Homo sapiens, UniProt Q92794, residues 85-181)
Method: protein binding microarray
Molecule type: double-stranded DNA, one strand shown
Matrix: in vitro
Concentration: not given
Notes: 8-mer, flanks averaged, mean of 2 arrays, mostly near background
Relative to: not given
Direction: higher = stronger binding
Residues (chain): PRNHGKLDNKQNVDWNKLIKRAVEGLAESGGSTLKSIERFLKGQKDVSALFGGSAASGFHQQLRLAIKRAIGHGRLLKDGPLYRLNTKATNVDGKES
| Oligonucleotide | E-score |
| --- | --- |
| CCGTGGGA | 0.104 |
| AGACGTTA | -0.251 |
| AGAAGAAC | -0.122 |
| GATAATGA | 0.032 |
| AATTGCGA | -0.126 |
| AACGCTCT | -0.152 |
| ACATTTAC | -0.158 |
| CTAAGACC | -0.0729 |
| GACGGGTA | -0.209 |
| AGTGTCGA | 0.0476 |
| AGCCTGAT | 0.0944 |
| CCTTTCGA | -0.0313 |
| AACACACT | -0.0731 |
| TGATATAA | -0.0633 |
| GCAGCTGA | 0.116 |
| CCAATTCG | -0.0373 |
| AAAATACT | 0.023 |
| ATGTCCTG | -0.00788 |
| AAATTTTG | -0.0834 |
| CGGAGCCA | 0.0208 |
| CATACGTA | -0.116 |
| CGGACGAC | 0.0474 |
| GACTGAGC | 0.00975 |

Block 3
Target: RNA binding protein fox-1 homolog 2, RRM domain, GST-SBP tag (RBFOX2, Homo sapiens, UniProt O43251-10, residues 100-194)
Method: RNA Bind-n-Seq
Molecule type: RNA
Matrix: in vitro
Concentration: 365 nM
Notes: natural RNA segment, single round, ends assumed
Relative to: no-protein control
Direction: higher = stronger binding
All sequences stand within: GGGAGUUCUACAGUCCGACGAUC … UGGAAUUCUCGGGUGCCAA
Residues (chain): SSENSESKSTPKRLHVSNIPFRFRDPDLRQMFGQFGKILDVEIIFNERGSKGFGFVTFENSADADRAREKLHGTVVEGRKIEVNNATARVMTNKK
| Oligonucleotide | RBNS enrichment (R) |
| --- | --- |
| GACUUUUGUGUUAAGGAUGUGUUGUGUGCUGGUAGAUGUUCAGGAGUGGCUCUGACCCCCAACCUACUCUGGGCACCUUCCUACCCCCAUCUCUCCAGCAACAAUAACCU | 0.454 |
| ACACCGAAACCUCCCUUCUUAAAGCGUGUGAGGUUGGGUGAUAGCCGUUCCUUCCCCGACACCCUCAAUUUCCCCAUCUCUGAUCCUCUAAUCUGCCUCUGAACCCAUUC | 0.578 |
| AACUUGAAGAUUCCAGAGAUUCCCCACGACCUAAUGAUCUAAGAAUGCAGAUUGGAUUCUUUGAUGUUCAAAUUUCUCAUUUACUUAUGAAAAUCCCUAAUUAUAUAGUU | 1.35 |
| UGAUUCCCCUCCUUUGACUUCUGCCUAGAAGCUUGGGUGCAAAGGGUUUCUUGCAUCUGAUCUUUCUACCACAACCACACCUGUCGUCCACUCUUCUGACUUGGUUUCUC | 0.722 |
| AGUGCCAAUGGUGGGAUCAGCAGGAAGACUGAUGUUGGAGACAAUCGGGUGCGGAUUGGUGCUAAUUUAAACAAAAGGGCCUCUGGGGUCUUUUGUUCAAUAUUUUACAA | 0.81 |
| ACCAGGCCAAAUCUAUUUGCCAAGCAGUGUAUCACUAAUAAGAAAAGCAGUUUUUCCUUUUAUUGCAGUUUUUGUUUAUCUGCCAUAGAAUUUCCUUAUACUGUGGCUUG | 0.316 |
| AAGUCCUUGCCCACUUCCCACUCUCCUGCCCCAAUCUAUCUAGUACUUCCCAGGCAAAUAGGCCCCUUUGAGGCUCCUGAGUGCCCUCAGAUGGUCAAAACCCAGUUUUC | 0.522 |
| ACUCUGGUCCUUACAUCACAGAGAAAAGCCACCUUGCCCGUUUUUCCUCCAUUCUGUGAACUUCCCUGGUGAGAGAAGAAGGAGGACUGGGCAUGAACUGAGGAUUGUAU | 0.493 |
| GGAUAUUCAUUUGAUUAUACGGGGGAGGGUCAGGGAAGAACGAACCUUGACGUUGCAGUGCAGUUUCACAGAUCGUUGUUAGAUCUUUAUUUUUAGCCAUGCACUGUUGU | 0.513 |
| ACAGGUAUGAGCCACCAUGCCCGGCUGGCAGUUGUAUUUUUUAAAGCCCUUCUGAUGAUUCCAAUGUGUUGGAAAGUUUACCUUGUCUCAGAUGUAACUGGUAAAGGCUG | 0.623 |
| AUAUAAAAGGUAAGACAGAGUUUGCAAAGCAUUUGUGGCUUUUUGUAGUUUACUUAAGCCAAAAUGUGUUUUUUUCCCCUUGAUAGCUUCGCUAAUAUUUUAAACAGUCC | 0.735 |
| AAUCGUGAACUGCUGCUGUAUGGCUAGACUUUGCCUAUUUACUCUGUUAUGCAAACAGUAAUUUUUCCCUAUGUUAUGAAGAGAGACAUAUUGGCUUGCUUUAAUUUACU | 0.874 |

Block 4
Target: CCNA1, cyclin fold, Cln2 fusion (human)
Method: yeast growth competition, sequencing
Matrix: yeast
Notes: weak parent motif
Relative to: not given
Direction: higher = stronger binding
Starting sequence: CDKN1A docking peptide (human); SKACRRLFGPVDS; partner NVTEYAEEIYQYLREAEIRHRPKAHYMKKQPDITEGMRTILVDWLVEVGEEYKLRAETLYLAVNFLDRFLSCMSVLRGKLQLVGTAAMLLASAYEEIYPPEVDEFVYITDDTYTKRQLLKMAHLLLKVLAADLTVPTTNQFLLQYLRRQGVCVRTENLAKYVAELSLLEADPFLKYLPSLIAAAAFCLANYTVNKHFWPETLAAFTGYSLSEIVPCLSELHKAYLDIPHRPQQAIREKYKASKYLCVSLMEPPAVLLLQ
| Variant | normalised enrichment score |
| --- | --- |
| SKAPRRLFGPVDS [C4P] | 0.402 |
| SNACRRLFGPVDS [K2N] | 0.666 |
| SKRCRRLFGPVDS [A3R] | -0.251 |
| SKAARRLFGPVDS [C4A] | 0.369 |
| SSACRRLFGPVDS [K2S] | 0.392 |
| SKACRMLFGPVDS [R6M] | 0.329 |
| SKACRRLNGPVDS [F8N] | -0.228 |
| SKACRRQFGPVDS [L7Q] | 0.272 |
| SKACRRLFGPVGS [D12G] | 0.616 |
| SKACRRLFGPVPS [D12P] | 0.305 |
| SWACRRLFGPVDS [K2W] | -0.292 |
| SKANRRLFGPVDS [C4N] | -0.0265 |
| SKACRRLFGPFDS [V11F] | 0.206 |
| SKACRRLLGPVDS [F8L] | -0.345 |
| SKACSRLFGPVDS [R5S] | -0.0731 |
| SEACRRLFGPVDS [K2E] | 0.0735 |
| SKACRILFGPVDS [R6I] | -0.108 |
| SKACRALFGPVDS [R6A] | 0.151 |

Block 5
Target: Max dimerization protein 1, bHLH-zipper, MAX partner unstated (MXD1, Homo sapiens, UniProt Q05195, residues 56-136)
Method: protein-binding microarray
Molecule type: double-stranded DNA, one strand shown
Matrix: in vitro
Concentration: not given
Notes: k-mer, scored over probes, only values ≥0.25
Direction: higher = stronger binding
Target sequence (chain): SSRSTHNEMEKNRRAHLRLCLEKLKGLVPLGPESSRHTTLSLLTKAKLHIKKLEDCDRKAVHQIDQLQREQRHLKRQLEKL
| Oligonucleotide | E-score |
| --- | --- |
| ACGCCCAC | 0.271 |
| AGCATGTC | 0.411 |
| ACCCGCCA | 0.31 |
| ACCACCAC | 0.271 |
| AACACGAG | 0.422 |
| ACGTGCTG | 0.317 |
| CCGCACGC | 0.371 |
| GACACGCA | 0.274 |
| GCGTGTTA | 0.402 |
| ACACGCTC | 0.305 |
| CACGCCGA | 0.338 |
| CATGCGTC | 0.412 |
| CACGTGAA | 0.475 |
| CGTGTTCA | 0.278 |
| CAGCATGA | 0.373 |
| CGGGGCAC | 0.271 |
| ACGAGGCG | 0.365 |
| GCACGCGA | 0.313 |
| CGGGGTGA | 0.256 |
| CAGCGTGA | 0.255 |
| AAAATGTG | 0.313 |
| CCCCACGC | 0.362 |
| GAGCACGC | 0.419 |
| ACGCATGA | 0.329 |
| CGTGGAGC | 0.364 |
